Measurements from different studies.
Numbered parts are unrelated; each lists some results of a single study.

Block 1
Target: Protein max, full length (MAX, Homo sapiens, UniProt P61244-2, residues 1-151)
Technique: protein-binding microarray
Form: double-stranded DNA, one strand shown
Matrix: in vitro
Concentration: not given
Notes: k-mer, scored over probes, only values ≥0.25
Direction: higher = stronger binding
Quantity: E-score
ATGTGCCA: 0.314
CGGCGTGA: 0.336
ACACCTGT: 0.342

Block 2
Target: Prothrombin, mature alpha-thrombin (F2, Homo sapiens, UniProt P00734)
Technique: aptamer microarray, sandwich
Form: DNA with 2'F-ANA
Matrix: in vitro
Concentration: 200 nM
Notes: whole 15-mer aptamer, many near background
Added: Cy3 exosite-II aptamer, 400 nM
Direction: higher = stronger binding
Quantity: mean fluorescence intensity
GGTTGGTGTGGTTGG (2'F-ANA at 1 2 7 10 11 13): 51.1 a.u.
GGTTGGTGTGGTTGG (2'F-ANA at 1 3 8 9 10 11 13 14 15): 62 a.u.
GGTTGGTGTGGTTGG (2'F-ANA at 2 3 4 5 6 7 8 11 14): 51 a.u.
GGTTGGTGTGGTTGG (2'F-ANA at 3 4 5 7 8 11 12 14): 56.6 a.u.

Block 3
Target: Sal-like protein 4, full length isoform B (SALL4, Homo sapiens, UniProt Q9UJQ4-2, residues 1-616)
Technique: universal PBM
Form: double-stranded DNA, one strand shown
Matrix: in vitro
Concentration: not given
Notes: 8-mer, flanks averaged, mean of replicates
Direction: higher = stronger binding
Quantity: E-score
Target sequence (chain): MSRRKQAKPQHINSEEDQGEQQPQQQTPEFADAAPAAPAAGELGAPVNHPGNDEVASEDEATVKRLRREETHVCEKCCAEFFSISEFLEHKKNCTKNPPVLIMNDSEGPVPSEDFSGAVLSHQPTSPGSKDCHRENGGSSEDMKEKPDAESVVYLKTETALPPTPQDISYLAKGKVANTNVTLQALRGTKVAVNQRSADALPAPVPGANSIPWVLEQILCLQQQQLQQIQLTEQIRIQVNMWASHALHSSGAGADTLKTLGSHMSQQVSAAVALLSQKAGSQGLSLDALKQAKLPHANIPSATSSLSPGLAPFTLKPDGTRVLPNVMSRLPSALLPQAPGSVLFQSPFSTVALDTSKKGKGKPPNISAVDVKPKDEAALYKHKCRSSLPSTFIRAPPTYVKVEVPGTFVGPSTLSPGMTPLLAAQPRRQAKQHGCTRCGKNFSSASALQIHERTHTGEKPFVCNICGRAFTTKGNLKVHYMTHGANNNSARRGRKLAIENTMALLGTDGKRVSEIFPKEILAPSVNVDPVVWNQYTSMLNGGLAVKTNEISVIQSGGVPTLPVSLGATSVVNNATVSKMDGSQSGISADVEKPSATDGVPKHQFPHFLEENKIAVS
CCGTTGGC: -0.244
ACAAACGT: 0.013
ACTATGCT: 0.222

Further values, each from its own experiment
PhoQ, residues 284 288 289 292 302 303 NSMLDC  fold induction (PhoP, residues 12 14 15 18 19 FWNTL (Escherichia coli, UniProt P23836); Sort-seq, item: YFP reporter; E. coli; PhoQ-PhoP variant library, added: 10 µM Mg2+; reference: high Mg2+ state, higher = stronger signaling): 18.2

Excerpt of the above (block 3):
ACAAACGT: 0.013
